Measurements of several laboratories.
Every numbered part comes from another study and shows a few of its results, in no order. Values joined by “and” are separate records of one study, mostly repeats; a detail may differ.
UniProt P11362, sequence (whole entry, looked up): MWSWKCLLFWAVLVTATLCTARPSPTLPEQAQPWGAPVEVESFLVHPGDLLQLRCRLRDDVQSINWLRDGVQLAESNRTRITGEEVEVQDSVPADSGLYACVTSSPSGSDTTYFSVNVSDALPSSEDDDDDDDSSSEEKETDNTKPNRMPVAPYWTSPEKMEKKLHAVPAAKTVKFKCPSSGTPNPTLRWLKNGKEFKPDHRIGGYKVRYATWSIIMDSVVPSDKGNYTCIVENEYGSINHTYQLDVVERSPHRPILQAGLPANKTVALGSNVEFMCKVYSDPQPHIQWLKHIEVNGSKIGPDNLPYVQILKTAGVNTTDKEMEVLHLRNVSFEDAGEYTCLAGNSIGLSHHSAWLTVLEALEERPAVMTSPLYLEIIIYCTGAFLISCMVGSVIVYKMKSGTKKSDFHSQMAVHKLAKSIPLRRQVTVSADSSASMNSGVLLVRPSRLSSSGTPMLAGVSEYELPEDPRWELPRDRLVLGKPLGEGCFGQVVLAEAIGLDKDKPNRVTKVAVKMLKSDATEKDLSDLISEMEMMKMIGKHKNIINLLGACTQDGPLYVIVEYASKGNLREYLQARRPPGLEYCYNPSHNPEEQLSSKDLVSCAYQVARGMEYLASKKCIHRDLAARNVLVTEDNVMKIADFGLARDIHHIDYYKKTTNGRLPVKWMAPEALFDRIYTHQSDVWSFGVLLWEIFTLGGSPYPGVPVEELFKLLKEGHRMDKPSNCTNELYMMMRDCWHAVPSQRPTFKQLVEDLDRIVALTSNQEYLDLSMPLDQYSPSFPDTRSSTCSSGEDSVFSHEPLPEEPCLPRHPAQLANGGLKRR
UniProt Q9UM73, sequence (whole entry, looked up): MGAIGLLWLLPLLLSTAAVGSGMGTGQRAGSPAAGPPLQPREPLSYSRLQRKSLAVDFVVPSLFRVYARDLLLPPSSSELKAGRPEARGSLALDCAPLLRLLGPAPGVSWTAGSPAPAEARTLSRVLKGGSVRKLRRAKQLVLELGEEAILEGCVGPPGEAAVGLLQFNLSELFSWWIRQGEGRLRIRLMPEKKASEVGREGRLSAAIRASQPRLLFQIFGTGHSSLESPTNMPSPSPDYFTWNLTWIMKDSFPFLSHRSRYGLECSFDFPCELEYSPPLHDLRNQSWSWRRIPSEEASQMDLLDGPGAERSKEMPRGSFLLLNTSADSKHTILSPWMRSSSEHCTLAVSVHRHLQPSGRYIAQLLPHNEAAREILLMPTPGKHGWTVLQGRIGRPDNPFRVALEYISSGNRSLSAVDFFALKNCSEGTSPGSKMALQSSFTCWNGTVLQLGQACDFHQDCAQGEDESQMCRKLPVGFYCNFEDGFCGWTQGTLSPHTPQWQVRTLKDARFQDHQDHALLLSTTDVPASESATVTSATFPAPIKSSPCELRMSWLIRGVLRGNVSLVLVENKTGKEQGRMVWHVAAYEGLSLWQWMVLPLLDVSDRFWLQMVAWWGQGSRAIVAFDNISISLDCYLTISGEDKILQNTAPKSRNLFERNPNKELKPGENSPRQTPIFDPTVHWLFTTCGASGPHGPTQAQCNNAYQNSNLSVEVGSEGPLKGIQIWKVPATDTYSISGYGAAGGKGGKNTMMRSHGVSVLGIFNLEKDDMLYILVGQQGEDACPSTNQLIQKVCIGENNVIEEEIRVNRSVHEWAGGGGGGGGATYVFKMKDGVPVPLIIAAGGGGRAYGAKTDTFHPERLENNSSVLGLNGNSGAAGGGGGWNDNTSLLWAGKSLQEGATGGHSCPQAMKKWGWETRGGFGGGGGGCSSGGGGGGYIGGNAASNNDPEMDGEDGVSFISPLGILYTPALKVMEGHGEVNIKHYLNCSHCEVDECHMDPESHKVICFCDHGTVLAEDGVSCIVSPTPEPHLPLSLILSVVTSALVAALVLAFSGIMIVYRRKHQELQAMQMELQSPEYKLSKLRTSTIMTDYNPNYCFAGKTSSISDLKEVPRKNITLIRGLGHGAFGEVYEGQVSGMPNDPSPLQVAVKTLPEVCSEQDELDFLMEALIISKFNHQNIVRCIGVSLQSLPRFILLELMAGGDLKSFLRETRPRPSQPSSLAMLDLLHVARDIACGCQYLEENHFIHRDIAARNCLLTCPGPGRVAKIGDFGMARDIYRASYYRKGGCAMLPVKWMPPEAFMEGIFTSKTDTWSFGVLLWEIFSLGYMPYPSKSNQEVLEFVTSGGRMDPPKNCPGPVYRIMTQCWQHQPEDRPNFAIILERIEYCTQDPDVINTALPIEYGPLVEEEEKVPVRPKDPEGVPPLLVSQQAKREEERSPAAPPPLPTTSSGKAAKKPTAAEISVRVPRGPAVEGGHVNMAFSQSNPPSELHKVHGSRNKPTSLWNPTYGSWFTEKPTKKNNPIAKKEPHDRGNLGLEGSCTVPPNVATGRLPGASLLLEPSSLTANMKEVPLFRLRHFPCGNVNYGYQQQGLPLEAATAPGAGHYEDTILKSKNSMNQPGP
UniProt Q13153, sequence (whole entry, looked up): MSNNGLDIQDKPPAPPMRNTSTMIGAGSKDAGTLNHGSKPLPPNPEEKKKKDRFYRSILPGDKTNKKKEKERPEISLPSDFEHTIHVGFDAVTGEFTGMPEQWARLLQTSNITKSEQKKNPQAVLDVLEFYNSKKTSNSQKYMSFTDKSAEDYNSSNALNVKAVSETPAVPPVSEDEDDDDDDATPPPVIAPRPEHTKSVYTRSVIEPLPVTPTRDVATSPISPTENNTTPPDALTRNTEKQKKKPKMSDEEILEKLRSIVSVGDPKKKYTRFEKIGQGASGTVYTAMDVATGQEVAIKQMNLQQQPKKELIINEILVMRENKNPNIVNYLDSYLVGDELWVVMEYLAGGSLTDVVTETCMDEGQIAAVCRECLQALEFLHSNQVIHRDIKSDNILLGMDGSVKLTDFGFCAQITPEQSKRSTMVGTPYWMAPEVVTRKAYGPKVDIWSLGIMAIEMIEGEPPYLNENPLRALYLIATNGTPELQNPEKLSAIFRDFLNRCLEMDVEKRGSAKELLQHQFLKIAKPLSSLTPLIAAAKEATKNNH
UniProt Q15418, sequence (whole entry, looked up): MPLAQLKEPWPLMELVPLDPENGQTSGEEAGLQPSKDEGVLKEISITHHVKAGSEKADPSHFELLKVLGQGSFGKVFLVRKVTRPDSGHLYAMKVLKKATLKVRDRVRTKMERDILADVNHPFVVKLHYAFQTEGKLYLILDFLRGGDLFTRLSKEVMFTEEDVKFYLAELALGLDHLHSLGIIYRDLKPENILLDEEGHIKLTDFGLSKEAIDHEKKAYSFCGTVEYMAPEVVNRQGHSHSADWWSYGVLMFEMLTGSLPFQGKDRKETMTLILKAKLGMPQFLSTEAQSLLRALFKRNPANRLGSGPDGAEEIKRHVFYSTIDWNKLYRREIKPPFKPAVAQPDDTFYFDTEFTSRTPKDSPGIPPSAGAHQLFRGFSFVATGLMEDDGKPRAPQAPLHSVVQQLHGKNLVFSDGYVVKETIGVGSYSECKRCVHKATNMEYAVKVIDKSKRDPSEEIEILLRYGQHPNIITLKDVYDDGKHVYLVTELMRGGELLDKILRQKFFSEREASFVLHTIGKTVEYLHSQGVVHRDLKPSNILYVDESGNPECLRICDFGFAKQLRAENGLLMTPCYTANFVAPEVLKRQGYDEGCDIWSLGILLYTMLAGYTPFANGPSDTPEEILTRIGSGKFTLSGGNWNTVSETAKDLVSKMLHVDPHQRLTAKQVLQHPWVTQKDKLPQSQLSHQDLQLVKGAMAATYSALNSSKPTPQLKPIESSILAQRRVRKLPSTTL
UniProt O43318, sequence (whole entry, looked up): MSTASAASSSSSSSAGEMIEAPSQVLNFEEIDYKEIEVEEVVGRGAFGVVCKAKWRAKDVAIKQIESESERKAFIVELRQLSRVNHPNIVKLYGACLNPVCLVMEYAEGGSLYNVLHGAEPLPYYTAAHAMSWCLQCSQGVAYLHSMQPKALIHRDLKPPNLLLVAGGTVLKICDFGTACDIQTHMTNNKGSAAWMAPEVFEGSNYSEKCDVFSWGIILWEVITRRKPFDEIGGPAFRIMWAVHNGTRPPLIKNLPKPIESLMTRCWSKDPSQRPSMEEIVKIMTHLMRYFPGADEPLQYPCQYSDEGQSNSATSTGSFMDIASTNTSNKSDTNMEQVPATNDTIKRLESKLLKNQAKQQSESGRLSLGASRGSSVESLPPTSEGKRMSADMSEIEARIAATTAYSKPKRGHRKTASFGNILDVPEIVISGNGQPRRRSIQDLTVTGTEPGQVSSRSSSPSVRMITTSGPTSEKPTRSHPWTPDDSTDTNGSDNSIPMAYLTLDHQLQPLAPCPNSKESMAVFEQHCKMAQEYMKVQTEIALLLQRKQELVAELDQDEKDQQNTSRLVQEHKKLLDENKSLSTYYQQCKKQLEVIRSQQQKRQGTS
UniProt P78368, sequence (whole entry, looked up): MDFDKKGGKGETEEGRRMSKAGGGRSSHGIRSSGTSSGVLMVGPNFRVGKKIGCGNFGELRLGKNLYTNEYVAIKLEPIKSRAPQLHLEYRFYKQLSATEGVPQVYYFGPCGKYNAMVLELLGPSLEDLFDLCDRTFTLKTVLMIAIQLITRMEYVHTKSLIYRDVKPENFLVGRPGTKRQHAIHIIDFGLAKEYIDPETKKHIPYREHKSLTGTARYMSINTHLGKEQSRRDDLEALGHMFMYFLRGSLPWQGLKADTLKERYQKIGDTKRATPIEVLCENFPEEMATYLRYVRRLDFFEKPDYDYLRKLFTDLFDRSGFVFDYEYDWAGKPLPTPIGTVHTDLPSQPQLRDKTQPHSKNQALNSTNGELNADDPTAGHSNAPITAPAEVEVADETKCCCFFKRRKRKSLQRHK
UniProt Q00535, sequence (whole entry, looked up): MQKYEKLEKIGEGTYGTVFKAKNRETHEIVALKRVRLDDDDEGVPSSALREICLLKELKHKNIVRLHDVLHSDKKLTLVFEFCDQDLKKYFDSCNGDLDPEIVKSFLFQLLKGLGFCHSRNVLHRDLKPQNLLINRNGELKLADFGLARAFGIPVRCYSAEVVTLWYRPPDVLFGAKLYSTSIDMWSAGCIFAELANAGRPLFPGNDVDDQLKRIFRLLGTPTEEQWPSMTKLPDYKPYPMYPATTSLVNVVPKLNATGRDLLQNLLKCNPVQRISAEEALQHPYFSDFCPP

Sample 1
Compound: CNc1ncc2cc(-c3cc(OC)cc(OC)c3Cl)c(=O)n(CCc3ccc(NC(=O)C(C#N)=CC(C)(C)N4CCOCC4)cc3)c2n1
Effect on: kinase activity
target	conditions	inhibition
Fibroblast growth factor receptor 1 (FGFR1, Homo sapiens, UniProt P11362)	0.1 µM	> 90% and 96%
MAP kinase-activated protein kinase 3 (MAPKAPK3, Homo sapiens, UniProt Q16644)	1 µM	0%
Cyclin-dependent kinase 5 (CDK5, Homo sapiens, UniProt Q00535)	0.1 µM	-1%
Dual specificity mitogen-activated protein kinase kinase 1 (MAP2K1, Homo sapiens, UniProt Q02750)	1 µM	6%
Ephrin type-B receptor 1 (EPHB1, Homo sapiens, UniProt P54762)	1 µM	-2%
Mitogen-activated protein kinase kinase kinase 7, with TAB1 (MAP3K7, Homo sapiens, UniProt O43318)	1 µM	-1%
Angiopoietin-1 receptor (TEK, Homo sapiens, UniProt Q02763)	0.1 µM	-5%
Serine/threonine-protein kinase PAK 1 (PAK1, Homo sapiens, UniProt Q13153)	1 µM	-10%

Sample 2
SMILES: CCC1(c2cccc(-c3cn(C)nc3C)c2)C2=C(Nc3n[nH]cc31)C(F)C(C)(C)CC2=O (single isomer, unassigned)
Concentration: 1 µM
target	test	scale	remaining binding [%]
Phosphatidylinositol 3-kinase C2 domain-containing subunit gamma (PIK3C2G, Homo sapiens, UniProt O75747)	kinase binding, KINOMEscan	relative to: DMSO control	76
Homeodomain-interacting protein kinase 1 (HIPK1, Homo sapiens, UniProt Q86Z02)	kinase binding, KINOMEscan	relative to: DMSO control	78
ALK tyrosine kinase receptor (ALK, Homo sapiens, UniProt Q9UM73)	kinase binding, KINOMEscan	relative to: DMSO control	84
Wee1-like protein kinase 2 (WEE2, Homo sapiens, UniProt P0C1S8)	kinase binding, KINOMEscan	relative to: DMSO control	100
Discoidin domain-containing receptor 2 (DDR2, Homo sapiens, UniProt Q16832)	binding, competition with immobilised ligand		95
Fibroblast growth factor receptor 2 (FGFR2, Homo sapiens, UniProt P21802)	binding, competition with immobilised ligand		100
Ribosomal protein S6 kinase alpha-1, N-terminal kinase domain (RPS6KA1, Homo sapiens, UniProt Q15418)	binding, competition with immobilised ligand		99
Casein kinase I isoform gamma-2 (CSNK1G2, Homo sapiens, UniProt P78368)	kinase binding, KINOMEscan	relative to: DMSO control	99

Sample 3
Organism: Arabidopsis thaliana
Strain: Col-0
Concentration: 50 µg/mL
Notes: seed germination, single repetition
Compound	hypocotyl length
CC(C)=CCN1C(=O)C(O)(C(=O)O)Oc2cc(F)ccc21 (stereo not shown)	1.84 cm and 1.81 cm and 1.82 cm and 1.83 cm
COc1ccc2c(c1)OC(O)(C(=O)O)C(=O)N2Cc1ccccc1 (stereo not shown)	1.31 cm and 1.33 cm and 1.3 cm
O=C(O)C1(O)Oc2cc(Br)ccc2N(Cc2ccccc2)C1=O (stereo not shown)	1.32 cm and 1.35 cm and 1.34 cm and 1.33 cm and 1.38 cm
O=C(O)C1(O)Oc2ccccc2N(Cc2ccccc2)C1=O (stereo not shown)	1.45 cm and 1.41 cm and 1.48 cm and 1.43 cm
CN1C(=O)C(O)(C(=O)O)Oc2cc(F)ccc21 (stereo not shown)	1.7 cm and 1.74 cm and 1.65 cm

Other studies, line by line
SMILES	cell line	conditions	quantity	result
Cn1cc(-c2cccc(CN3CCC4(CC3)COc3c4ccc4c3CN([C@H]3CCC(=O)NC3=O)C4=O)c2)cn1	Caco-2	basolateral to apical	Papp	2.64e-05 cm/s

Excerpt of the above (sample 2):
target	test	scale	remaining binding [%]
Phosphatidylinositol 3-kinase C2 domain-containing subunit gamma (PIK3C2G, Homo sapiens, UniProt O75747)	kinase binding, KINOMEscan	relative to: DMSO control	76
Casein kinase I isoform gamma-2 (CSNK1G2, Homo sapiens, UniProt P78368)	kinase binding, KINOMEscan	relative to: DMSO control	99
Discoidin domain-containing receptor 2 (DDR2, Homo sapiens, UniProt Q16832)	binding, competition with immobilised ligand		95
Wee1-like protein kinase 2 (WEE2, Homo sapiens, UniProt P0C1S8)	kinase binding, KINOMEscan	relative to: DMSO control	100
